Assay results from different studies.
A part holds a random share of what one study measured.

Study 1
Target: Interferon regulatory factor 7, full length, phosphomimetic (IRF7, Homo sapiens, UniProt Q92985, residues 1-503, S471D/S472D/S475D/S476D/S477D/S483D/S484D/S487D)
UniProt Q92985, sequence (whole entry, unmodified, looked up): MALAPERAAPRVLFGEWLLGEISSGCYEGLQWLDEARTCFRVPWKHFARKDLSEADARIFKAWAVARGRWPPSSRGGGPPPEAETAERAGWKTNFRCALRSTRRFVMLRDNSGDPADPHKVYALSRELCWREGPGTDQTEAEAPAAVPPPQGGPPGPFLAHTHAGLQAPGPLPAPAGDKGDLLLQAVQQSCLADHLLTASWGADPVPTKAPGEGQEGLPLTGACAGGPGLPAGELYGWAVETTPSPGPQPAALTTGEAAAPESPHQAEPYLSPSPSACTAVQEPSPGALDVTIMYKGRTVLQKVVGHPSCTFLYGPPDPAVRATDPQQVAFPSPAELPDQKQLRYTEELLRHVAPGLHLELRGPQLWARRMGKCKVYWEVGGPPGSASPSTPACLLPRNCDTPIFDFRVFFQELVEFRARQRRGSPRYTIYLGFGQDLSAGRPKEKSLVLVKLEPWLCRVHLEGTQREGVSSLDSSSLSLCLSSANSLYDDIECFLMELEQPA
Method: protein-binding microarray
Form: double-stranded DNA, one strand shown
Medium: in vitro
Tested at: 2200 nM top
Setting: 60-bp whole probe
With: salmon DNA 0.4 mg/ml
Relative to: random background probes
Direction: higher = stronger binding
Shared flanks, not repeated: GCCTAGCAC … GTCTTGATTCGCTTGACGCTGCTG
`TTAGGACTGGGCACTGGGTTAGTGCTA`: “fitted relative affinity” -1.14 z-score.
Under “fitted relative affinity”, `TTGGTTCTCAGCTTGGGGCAGTGCTAG` is recorded as 0.786 z-score.
Under “fitted relative affinity”, `GACAGTCTCGGTCTCGGGACGTGCTAG` is recorded as 0.467 z-score.
Under “fitted relative affinity”, `TCAGTTTCCATTTTCTGACTGTGCTAG` is recorded as 7.61 z-score.
For `GACGTACTGCTTTTCCTGACGTGCTAG`, “fitted relative affinity” read 1.18 z-score.
Under “fitted relative affinity”, `TCATTTTTAGATATCTTACTGTGCTAG` is recorded as 1.18 z-score.
For `GACGGTCTCTGTTTCGGGACGTGCTAG`, “fitted relative affinity” read 2.52 z-score.
Under “fitted relative affinity”, `TTAGGTTTCCTGATCCTTTAGTGCTAG` is recorded as 1.46 z-score.
Under “fitted relative affinity”, `GCTGTCATCGATTTCTTCCCGTGCTAG` is recorded as 2.15 z-score.
For `GATGAACTGAGTTTCGAGACGTGCTAG`, “fitted relative affinity” read 2.12 z-score.
`TTAGGTATCAGACTGGATTAGTGCTAG`: “fitted relative affinity” -0.17 z-score.
`GACGGTTCCCTTTCCCTGACGTGCTAG` — result for “fitted relative affinity”: 2.02 z-score.
Under “fitted relative affinity”, `GACGATTTCAGATTGGAGACGTGCTAG` is recorded as 1.37 z-score.
For `TTAGATTTCGGGTATCTATTAGTGCTA`, “fitted relative affinity” read 2.68 z-score.
Under “fitted relative affinity”, `GACGGTTTCGGTATCGGTACGTGCTAG` is recorded as 7.61 z-score.
`CTTGTTCTTAGCTTGGGTCTGTGCTAG` — result for “fitted relative affinity”: 1.1 z-score.

Study 2
Target: RING finger protein unkempt homolog, zinc fingers 1-6, GST-SBP tag (UNK, Homo sapiens, UniProt Q9C0B0, residues 30-357)
Method: RNA Bind-n-Seq
Form: RNA
Medium: in vitro
Tested at: not given
Setting: RNA with constant flanks, human and mouse sites, ends assumed
Relative to: input RNA pool
Direction: higher = stronger binding
Shared flanks, not repeated: GGGAGUUCUACAGUCCGACGAUC … CAACAGAGGAUUGAGCAUCA
Construct (chain): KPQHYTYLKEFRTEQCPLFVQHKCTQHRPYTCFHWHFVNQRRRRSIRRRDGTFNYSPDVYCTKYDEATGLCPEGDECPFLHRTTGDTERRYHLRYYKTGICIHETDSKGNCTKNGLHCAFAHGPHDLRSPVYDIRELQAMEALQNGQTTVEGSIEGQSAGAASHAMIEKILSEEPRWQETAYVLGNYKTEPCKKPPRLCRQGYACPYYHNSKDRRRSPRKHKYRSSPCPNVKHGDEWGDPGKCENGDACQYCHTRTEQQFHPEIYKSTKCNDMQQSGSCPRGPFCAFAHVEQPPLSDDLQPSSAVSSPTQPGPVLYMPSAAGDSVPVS
For `CCAGCCGGUACAGACCCAAGGAUCUUGUCUUUAGCUGCUGAAGUUGCAAAAAGUCCUGAACAAAAUGUUCCUGUUAUAUUAUUGAAGUUAAAAGAAAUAAUAAACAACACCCCUUUGGGA`, the bound/input enrichment was 0.22 ratio.
For `ACCAACAAAGACAAGGCUGAAUUCAUUCUGCCUAAUGGUCAAGAAGUAGAUCUCCCGAUUUCCUACUUAACUUCAGUCUCAUCUUUGAUUGUGUGGCAUCCAGCAAACCCUGCGGAGAAA`, the bound/input enrichment was 0.173 ratio.
For `UUGCCUAGCUUUACGAAUAUUGCUUUGUUUUCUGUUUAUGCAUAGCCUUGAUUUGUUUGACUCCCCUCCCCCCAUUUACAUGCAUGCAAUCAGACAGGCCACUAAGGUAAAAGAGUCUGC`, the bound/input enrichment was 0.908 ratio.
With `UCCACCAGUGAUGCCUUCUGGAAAUCACCAAAUUCCUCGUCGAGGAUUUCACCCCUAGUGUUGUUUUCCAAUUUGCCUGUGAACCAUAAAAUGGAGCACAAUAAUAAUGACACUCAACAG` the bound/input enrichment was 0.168 ratio.
For `GCCAUGGACACAGAAUUUCCAGGUGUUGUGGUGCGACCAAUUGGUGAAUUUCGUAGUUCCAUAGAUUACCAAUAUCAGCUUCUGCGGUGCAAUGUUGACCUUUUAAAAAUUAUCCAGCUG`, the bound/input enrichment was 0.685 ratio.
`AGAGAAGAGUUGGUUGAUCGUGUUUUUGAUGAAAGUCUCAACUUCCGAAAGAUACCUCCAUUAGUUCAUUCUAAAACACCAGAAGGAAACAACGGUCGGUCUGUUGACUCGAGGCCUCAG` gave a bound/input enrichment of 0.158 ratio.
For `GUGUGUGAAGAUUUGGAAAAUAUUGAAGGACUGCACCACUUGUAUGAAAUUAUCAAAGGCAUCUUUCUCUUGAAUCGAACUGCUCUUUUUGAAGUUAUGUUCUCUGAAGAAUGUAUAAUG`, the bound/input enrichment was 0.414 ratio.
The bound/input enrichment of `CCUCCAAGGCAAAGACAGGAGAGCUAUGCUGGUGGUGAGGCGGCAGGCUGCACGCUGGACAACAGCUUAACCAAUAUCCAGUGGCUUGGAAAGAUGAGUUCUGACGGGCUGGGCCCCUGC` is reported as 0.0452 ratio.
For `CUGUUGGGAUCUGGGCUUCCUCACUUCUGGAGAAGUGGCCAUCCCAUGCCCACCUGUGCCAUGGAGGAGUGGGCCCUGCCAGCUGCCACAGCUGCAUGACCUGCUUCCCCACCCCACGGU`, the bound/input enrichment was 0.0396 ratio.
The bound/input enrichment of `GAGAAUCAGGGCUACACUGGUACCCUGGUGGGCCCGAUGUGAAACUCCUGUCAAACAACCAACUUUUAAAUGGUUUGCUAGGACUAUUUCUGUAUUGAAAGUUUCUAAUUAUGCUUUUUA` is reported as 0.305 ratio.
With `AGAUCCGCUGCUGCCGAGGAGAGGAGCGUCAACUGCGGCACCAUGGUAGCUCAACCGAAGAACCUUGAGGGCUAUGUGGGCUUUGCCAACCUCCCAAAUCAAGUGUACAGAAAAUCCGUG` the bound/input enrichment was 0.265 ratio.

Study 3
Target: Ras GTPase-activating protein-binding protein 1, full length (G3BP1, Homo sapiens, UniProt Q13283)
UniProt Q13283, sequence (whole entry, looked up): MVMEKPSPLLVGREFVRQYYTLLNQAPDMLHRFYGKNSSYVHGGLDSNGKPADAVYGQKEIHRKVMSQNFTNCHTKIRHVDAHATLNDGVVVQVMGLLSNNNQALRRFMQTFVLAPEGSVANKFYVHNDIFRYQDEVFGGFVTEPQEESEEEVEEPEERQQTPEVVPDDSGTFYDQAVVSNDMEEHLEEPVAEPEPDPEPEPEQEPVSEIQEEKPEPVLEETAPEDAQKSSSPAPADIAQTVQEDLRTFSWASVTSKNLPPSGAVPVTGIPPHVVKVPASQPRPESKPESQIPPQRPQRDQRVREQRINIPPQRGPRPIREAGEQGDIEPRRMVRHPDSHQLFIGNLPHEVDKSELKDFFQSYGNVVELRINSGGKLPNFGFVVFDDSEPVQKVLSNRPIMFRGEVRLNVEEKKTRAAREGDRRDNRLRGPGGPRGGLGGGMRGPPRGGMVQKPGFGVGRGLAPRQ
Method: RNA Bind-n-Seq
Form: RNA
Medium: in vitro
Tested at: 200 nM
Setting: whole 134-nt RNA, ends assumed
With: 150 mM KCl
Relative to: input library
Direction: higher = stronger binding
Shared flanks, not repeated: GGGAGUUCUACAGUCCGACGAUC … UGGAAUUCUCGGGUGUCAAGG
`UGGCCCUCGUGGCAUGCGGGGAGGAAGAGGUGGCCUCAUGGAUCGUGGUGGUCCCGGUGGAAUGUUCAGAGGUGGCCGUGGUGGAGACAG` gave a log2 enrichment of 0.0948.
`CCUGUGCUACACAUCGUAUGUACCGAAUCGGGUUUUUUGGUUUUUUGGGGUUUUUUGGGGAAAGUAUUAUGUUACGCCGUUCGGAUCUGC` gave a log2 enrichment of -0.873.
`CUCAAGUCCUGUGCUACACAUCGUAUGUACCGAAUCGGUGGUUUUUUUGGUGGAAAGUAUUAUGUUACGCCGUUCGGAUCUGCACUUCCA` gave a log2 enrichment of -0.302.
The log2 enrichment of `CCUGUGCUACACAUCGUAUGUACCGAAUCGGGAAAAAAAGGGUUUUUGGGAAAAAAAGGGAAAGUAUUAUGUUACGCCGUUCGGAUCUGC` is reported as -0.834.
The log2 enrichment of `CUCAAGUCCUGUGCUACACAUCGUAUGUACCGAAUCGGGGCGGGCGGGGCGGGGAAAGUAUUAUGUUACGCCGUUCGGAUCUGCACUUCC` is reported as 1.23.
The log2 enrichment of `UCCUCAAGUCCUGUGCUACACAUCGUAUGUACCGAAUCGGAGGAGGGGAGGGAAAGUAUUAUGUUACGCCGUUCGGAUCUGCACUUCCAG` is reported as 0.28.
For `UGGCCCUGGUUGCAUGCGGGGAGGAAGAGGUGGCCUCAUGGAUCGUGGUGGUCCCGGUGGAAUGUUCAGAGGUGGCCGUGGUGGAGACAG`, the log2 enrichment was 0.151.
`AGUCCUGUGCUACACAUCGUAUGUACCGAAUCGGGGAAAAGGGGAAAAGGGAAAAGGAAAGUAUUAUGUUACGCCGUUCGGAUCUGCACU` gave a log2 enrichment of -0.47.
The log2 enrichment of `UCAAGUCCUGUGCUACACAUCGUAUGUACCGAAUCGGAAAAAGGAGGUUUUUGGAAAGUAUUAUGUUACGCCGUUCGGAUCUGCACUUCC` is reported as -0.764.
`UGGGAGGUGGAUUUUGUUUAUUUUUUUAGCUCAUUUCCAGGGGUGGGAAUUUCUUUUUAAUAUGUGUCAUGAAUAAAGUUGUUUUUGAAA` gave a log2 enrichment of 0.0729.

Study 4
Target: Histone acetyltransferase KAT6A, winged helix 2, GST fusion (KAT6A, Homo sapiens, UniProt Q92794, residues 85-181)
Method: protein binding microarray
Form: double-stranded DNA, one strand shown
Medium: in vitro
Tested at: not given
Setting: 8-mer, flanks averaged, mean of 2 arrays, mostly near background
Relative to: not given
Direction: higher = stronger binding
Target sequence (chain): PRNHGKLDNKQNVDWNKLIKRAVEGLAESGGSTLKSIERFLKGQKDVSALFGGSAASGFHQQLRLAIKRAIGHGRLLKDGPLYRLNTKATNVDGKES
`GTCCGCAA` gave an E-score of -0.00342.
With `CTGAAATC` the E-score was -0.0193.
The E-score of `AAGGCAAT` is reported as -0.0322.
With `CACTCTAG` the E-score was 0.115.
`AAGGGCGC` gave an E-score of 0.169.
`AAACGCTG` gave an E-score of -0.0419.
The E-score of `CTCCTTAC` is reported as -0.195.
With `TCGTCAAA` the E-score was 0.125.
For `ACAACTCG`, the E-score was -0.0921.
For `TACTCGAA`, the E-score was -0.0724.
`ATGCGCAT` has an E-score of 0.183.
`ATAGCCCG` gave an E-score of -0.00456.
With `TAGGCCTA` the E-score was 0.00932.
With `CAAGGGTG` the E-score was -0.0539.
With `GGTTTTAA` the E-score was 0.0529.
With `AGAGGCCT` the E-score was -0.0323.
With `ATATCTAG` the E-score was 0.0277.
